Measurements from different studies.
Lines come from different studies, so protocols differ. ± gives the spread as reported. Converted amounts (≈) assume the structure as drawn.
Organism: Bacillus cereus

| SMILES | test | system | setting | measurement | value |
| --- | --- | --- | --- | --- | --- |
| COc1c2c(cc3oc(=O)cc(-c4ccc(Cl)cc4)c13)C(=O)c1cc(C)cc(O)c1C2=O | – | MTCC 1306 | 100 µg/disc | zone of inhibition | 13 mm |
| CC(/C=C/C(O)=C1/C(=O)CNC1=O)=C\[C@@H](C)[C@H]1O[C@@]2(C)O[C@H](C[C@@H]3O[C@@]32C)[C@@H]1C | – | – | – | MIC | > 100 µM |
| Oc1c(Br)ccc2cccnc12 | microbial growth, agar dilution | – | – | MIC | 35.7 µM (≈ 8 µg/mL) |
| Cc1cc(O)c2c(c1)C(=O)c1cc3oc(=O)cc(-c4ccc(Cl)cc4)c3c(O)c1C2=O | – | MTCC 1306 | 100 µg/disc | zone of inhibition | 8 mm |
| CCOC(=O)C1=C(C)NC2=C(C(=O)CC(C)(C)C2)C1c1ccc(OCC(=O)NN=Cc2cc(Br)c(O)c(Br)c2)cc1OCC(=O)NN=Cc1cc(Br)c(O)c(Br)c1 (stereo not shown) | – | EMC19 | concentration not given, 24 h, 37 °C | inhibition zone diameter | 13.4 ± 0.03 mm |
| Cc1cc(O)cc2c1C(=O)c1c(cc3oc(=O)cc(C)c3c1O)C2=O | – | MTCC 1306 | 100 µg/disc | zone of inhibition | < 8 mm |
| CC(C=CC(O)=C1C(=O)CNC1=O)=CC(C)C1OC2(C)OC(C1C)C(O)C1OC12C (stereo not shown) | – | – | – | MIC | > 100 µM |
| Cc1cc(O)c2c(c1)C(=O)c1cc3oc(=O)cc(-c4ccc(O)cc4)c3c(O)c1C2=O | – | MTCC 1306 | 100 µg/disc | zone of inhibition | 8 mm |
| CCOC(=O)C1=C(C)NC2=C(C(=O)CC(C)(C)C2)C1c1ccc(OCC(=O)NN=Cc2cccc([N+](=O)[O-])c2)cc1OCC(=O)NN=Cc1cccc([N+](=O)[O-])c1 (stereo not shown) | – | EMC19 | concentration not given, 24 h, 37 °C | inhibition zone diameter | 8.6 ± 0.3 mm |
| CO[C@H]1O[C@H](COC(c2ccccc2)(c2ccccc2)c2ccccc2)[C@@H](OS(=O)(=O)c2ccccc2)[C@H](OS(=O)(=O)c2ccccc2)[C@H]1OS(=O)(=O)c1ccccc1 | – | – | concentration not given | inhibition zone diameter | 15 ± 0.3 mm |
| O=C(O)CN1C(=O)/C(=C/c2ccc(-c3ccc(N(c4ccccc4)c4ccccc4)cc3)cc2)NC1=S | broth microdilution | ATCC 10876 | – | MBC/MIC ratio | 2 |
| Oc1c(Cl)cc(Cl)c2cccnc12 | microbial growth, agar dilution | – | – | MIC | 37.4 µM (≈ 8 µg/mL) |
| CC(=O)[O-].O.O.[O-]c1ccc(Br)cc1C=NCCN1CCOCC1.[Zn+2] | – | – | 20 µL of 100 µM per disc | inhibition zone diameter | 26 mm |

For quick reference, copied from above:
| SMILES | test | system | setting | measurement | value |
| --- | --- | --- | --- | --- | --- |
| O=C(O)CN1C(=O)/C(=C/c2ccc(-c3ccc(N(c4ccccc4)c4ccccc4)cc3)cc2)NC1=S | broth microdilution | ATCC 10876 | – | MBC/MIC ratio | 2 |
| Oc1c(Cl)cc(Cl)c2cccnc12 | microbial growth, agar dilution | – | – | MIC | 37.4 µM (≈ 8 µg/mL) |
